Results of several laboratories.
Parts stem from different laboratories: compare values within a part only. Changes are numbered by the printed parent chain.
Chain of UniProt Q93WC4 (whole entry, looked up): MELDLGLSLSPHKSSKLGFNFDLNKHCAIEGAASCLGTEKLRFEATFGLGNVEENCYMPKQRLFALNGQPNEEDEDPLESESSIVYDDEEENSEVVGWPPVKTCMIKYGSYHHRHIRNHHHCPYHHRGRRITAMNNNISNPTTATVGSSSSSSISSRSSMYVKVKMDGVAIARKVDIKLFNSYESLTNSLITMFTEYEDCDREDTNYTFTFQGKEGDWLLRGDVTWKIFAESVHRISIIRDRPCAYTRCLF
Chain of UniProt Q8H174 (whole entry, looked up): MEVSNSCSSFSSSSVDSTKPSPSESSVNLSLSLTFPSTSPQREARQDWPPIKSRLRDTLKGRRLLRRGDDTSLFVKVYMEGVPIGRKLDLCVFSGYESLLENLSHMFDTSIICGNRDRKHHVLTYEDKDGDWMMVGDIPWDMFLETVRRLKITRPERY
Chain of UniProt O95819 (whole entry, looked up): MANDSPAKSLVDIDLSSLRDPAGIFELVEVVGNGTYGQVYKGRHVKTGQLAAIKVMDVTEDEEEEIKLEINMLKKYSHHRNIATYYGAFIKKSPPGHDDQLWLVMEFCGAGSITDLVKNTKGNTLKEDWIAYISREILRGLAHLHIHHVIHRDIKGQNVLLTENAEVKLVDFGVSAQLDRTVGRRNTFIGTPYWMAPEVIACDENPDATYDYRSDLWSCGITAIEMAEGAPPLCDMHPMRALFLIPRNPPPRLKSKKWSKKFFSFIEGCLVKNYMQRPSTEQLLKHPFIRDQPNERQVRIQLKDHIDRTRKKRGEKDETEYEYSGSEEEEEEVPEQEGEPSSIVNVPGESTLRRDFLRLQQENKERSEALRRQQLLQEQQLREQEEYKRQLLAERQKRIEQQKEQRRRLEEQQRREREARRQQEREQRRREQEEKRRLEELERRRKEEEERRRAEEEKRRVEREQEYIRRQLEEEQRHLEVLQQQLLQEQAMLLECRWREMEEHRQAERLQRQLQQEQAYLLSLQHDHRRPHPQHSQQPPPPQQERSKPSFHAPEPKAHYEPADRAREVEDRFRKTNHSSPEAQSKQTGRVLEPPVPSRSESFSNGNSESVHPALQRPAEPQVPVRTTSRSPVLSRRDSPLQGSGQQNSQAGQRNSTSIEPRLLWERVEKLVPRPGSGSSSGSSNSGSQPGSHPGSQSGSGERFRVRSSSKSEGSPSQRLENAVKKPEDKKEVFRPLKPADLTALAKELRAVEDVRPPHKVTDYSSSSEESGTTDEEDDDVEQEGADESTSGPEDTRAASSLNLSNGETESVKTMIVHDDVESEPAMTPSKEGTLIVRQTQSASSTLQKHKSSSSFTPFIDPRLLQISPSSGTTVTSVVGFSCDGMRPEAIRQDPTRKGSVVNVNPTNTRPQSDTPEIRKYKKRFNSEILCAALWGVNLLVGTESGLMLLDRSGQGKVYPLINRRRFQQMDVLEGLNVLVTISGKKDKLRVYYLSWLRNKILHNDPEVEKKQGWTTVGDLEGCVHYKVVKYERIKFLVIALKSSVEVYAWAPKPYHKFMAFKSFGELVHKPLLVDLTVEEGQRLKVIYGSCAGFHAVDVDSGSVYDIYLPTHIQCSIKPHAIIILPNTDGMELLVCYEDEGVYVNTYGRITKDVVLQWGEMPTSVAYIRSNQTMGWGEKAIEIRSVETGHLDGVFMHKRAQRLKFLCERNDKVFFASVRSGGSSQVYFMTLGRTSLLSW
Chain of UniProt Q9ZPY6 (whole entry, looked up): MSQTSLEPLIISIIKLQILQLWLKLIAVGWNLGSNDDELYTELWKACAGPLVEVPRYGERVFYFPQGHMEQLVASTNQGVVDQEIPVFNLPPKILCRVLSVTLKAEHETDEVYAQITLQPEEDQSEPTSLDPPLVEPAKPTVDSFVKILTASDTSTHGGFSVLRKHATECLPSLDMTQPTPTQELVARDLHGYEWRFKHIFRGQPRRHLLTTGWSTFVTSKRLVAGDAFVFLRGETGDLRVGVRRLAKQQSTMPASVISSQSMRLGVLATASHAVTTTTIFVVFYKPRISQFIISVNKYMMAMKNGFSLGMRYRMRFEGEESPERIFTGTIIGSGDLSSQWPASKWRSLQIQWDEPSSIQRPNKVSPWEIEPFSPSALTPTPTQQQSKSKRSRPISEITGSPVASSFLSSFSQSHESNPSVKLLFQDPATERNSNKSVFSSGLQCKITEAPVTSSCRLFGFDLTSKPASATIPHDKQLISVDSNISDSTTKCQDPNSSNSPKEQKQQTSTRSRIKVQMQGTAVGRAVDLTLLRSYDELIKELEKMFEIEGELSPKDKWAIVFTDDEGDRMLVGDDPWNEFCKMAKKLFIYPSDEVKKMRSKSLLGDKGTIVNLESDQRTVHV
Chain of UniProt Q96L34 (whole entry, looked up): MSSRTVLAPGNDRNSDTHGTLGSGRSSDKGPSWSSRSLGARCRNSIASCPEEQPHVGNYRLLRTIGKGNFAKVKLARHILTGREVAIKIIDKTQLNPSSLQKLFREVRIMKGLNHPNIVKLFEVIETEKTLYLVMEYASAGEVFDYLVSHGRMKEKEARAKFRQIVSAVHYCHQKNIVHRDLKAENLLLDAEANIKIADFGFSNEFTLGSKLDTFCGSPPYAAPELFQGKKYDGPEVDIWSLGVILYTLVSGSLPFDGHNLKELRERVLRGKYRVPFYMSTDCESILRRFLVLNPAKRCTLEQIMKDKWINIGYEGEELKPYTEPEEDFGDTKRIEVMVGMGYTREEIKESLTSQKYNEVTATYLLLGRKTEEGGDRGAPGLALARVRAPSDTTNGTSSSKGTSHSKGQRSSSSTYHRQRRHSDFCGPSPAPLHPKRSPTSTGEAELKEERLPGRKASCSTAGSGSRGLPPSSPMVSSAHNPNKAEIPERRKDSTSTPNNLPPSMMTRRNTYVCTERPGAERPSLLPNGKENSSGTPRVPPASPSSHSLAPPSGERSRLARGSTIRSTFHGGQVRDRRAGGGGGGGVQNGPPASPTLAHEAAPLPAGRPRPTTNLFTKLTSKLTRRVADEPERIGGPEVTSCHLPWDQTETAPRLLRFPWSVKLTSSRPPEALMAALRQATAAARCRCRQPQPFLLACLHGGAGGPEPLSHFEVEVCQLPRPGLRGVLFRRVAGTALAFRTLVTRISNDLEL
Chain of UniProt Q9BXA7 (whole entry, looked up): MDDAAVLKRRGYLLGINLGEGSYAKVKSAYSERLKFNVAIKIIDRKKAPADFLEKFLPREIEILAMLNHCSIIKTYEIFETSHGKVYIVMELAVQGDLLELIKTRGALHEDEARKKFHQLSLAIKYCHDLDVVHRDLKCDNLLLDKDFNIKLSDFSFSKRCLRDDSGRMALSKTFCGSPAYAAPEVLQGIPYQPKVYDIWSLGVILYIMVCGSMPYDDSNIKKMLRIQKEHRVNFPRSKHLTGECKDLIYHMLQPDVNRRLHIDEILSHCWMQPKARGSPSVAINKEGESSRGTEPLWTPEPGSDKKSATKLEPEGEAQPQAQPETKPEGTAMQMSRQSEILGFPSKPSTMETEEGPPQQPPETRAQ
Chain of UniProt O43683 (whole entry, looked up): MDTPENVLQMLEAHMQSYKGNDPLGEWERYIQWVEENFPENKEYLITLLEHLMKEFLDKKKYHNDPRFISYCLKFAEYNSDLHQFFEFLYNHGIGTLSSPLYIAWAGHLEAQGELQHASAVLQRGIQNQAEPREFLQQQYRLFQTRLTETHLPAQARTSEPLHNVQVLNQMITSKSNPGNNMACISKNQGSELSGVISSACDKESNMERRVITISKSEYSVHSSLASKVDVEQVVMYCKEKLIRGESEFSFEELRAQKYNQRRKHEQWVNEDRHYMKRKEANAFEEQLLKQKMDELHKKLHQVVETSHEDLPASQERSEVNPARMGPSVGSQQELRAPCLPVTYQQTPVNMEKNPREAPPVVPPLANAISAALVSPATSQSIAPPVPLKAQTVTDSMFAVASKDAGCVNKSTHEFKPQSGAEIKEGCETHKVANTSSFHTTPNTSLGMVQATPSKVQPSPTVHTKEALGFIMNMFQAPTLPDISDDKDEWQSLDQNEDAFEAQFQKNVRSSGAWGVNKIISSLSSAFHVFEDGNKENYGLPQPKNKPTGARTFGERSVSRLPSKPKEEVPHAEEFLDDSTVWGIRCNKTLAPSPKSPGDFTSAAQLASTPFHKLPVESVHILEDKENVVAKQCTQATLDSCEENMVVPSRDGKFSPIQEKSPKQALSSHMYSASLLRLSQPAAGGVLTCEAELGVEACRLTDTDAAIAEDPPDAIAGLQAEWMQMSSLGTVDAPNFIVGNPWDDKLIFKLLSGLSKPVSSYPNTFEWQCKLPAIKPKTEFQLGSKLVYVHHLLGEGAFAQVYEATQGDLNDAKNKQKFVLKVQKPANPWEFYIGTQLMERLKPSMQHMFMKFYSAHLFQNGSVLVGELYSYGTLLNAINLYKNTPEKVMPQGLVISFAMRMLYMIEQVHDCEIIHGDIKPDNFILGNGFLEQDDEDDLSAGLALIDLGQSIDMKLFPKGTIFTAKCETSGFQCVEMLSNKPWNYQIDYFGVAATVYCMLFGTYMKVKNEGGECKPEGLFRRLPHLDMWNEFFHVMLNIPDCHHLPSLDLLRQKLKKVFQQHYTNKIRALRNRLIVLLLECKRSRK
Chain of UniProt P27037 (whole entry, looked up): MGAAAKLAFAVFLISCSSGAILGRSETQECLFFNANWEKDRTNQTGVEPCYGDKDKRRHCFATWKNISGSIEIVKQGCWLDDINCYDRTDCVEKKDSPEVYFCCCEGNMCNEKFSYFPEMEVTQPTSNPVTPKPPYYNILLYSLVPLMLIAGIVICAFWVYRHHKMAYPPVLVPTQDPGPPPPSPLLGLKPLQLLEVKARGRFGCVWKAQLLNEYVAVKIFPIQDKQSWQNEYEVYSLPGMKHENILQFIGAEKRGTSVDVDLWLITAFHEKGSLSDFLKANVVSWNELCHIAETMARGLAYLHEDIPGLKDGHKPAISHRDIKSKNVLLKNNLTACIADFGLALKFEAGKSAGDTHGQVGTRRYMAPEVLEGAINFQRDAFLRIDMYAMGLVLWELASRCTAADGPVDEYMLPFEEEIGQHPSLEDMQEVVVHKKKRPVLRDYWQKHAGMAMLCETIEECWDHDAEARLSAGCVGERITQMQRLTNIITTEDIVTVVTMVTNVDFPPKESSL

Sample 1
Sequence: B1 (IAA26)
Technique: two-hybrid
Direction: higher = firmer interaction
Measurement: positive tests
B1: IAA26 (Arabidopsis thaliana, UniProt Q8LAL2); chain MEGCPRNREIGPKLLDLIPQGRKWYQEDKNNTDQEKKLELRLGPPGGDEEDHSAIKKKNTEIRNIKKETEDKSFHCFNGNHFSPSNKTTSVPHISQKRTAPGPVVGWPPVRSFRKNLASTSSSKLGNESSHGGQINKSDDGEKQVETKKEGMFVKINMDGVPIGRKVDLNAYNSYEQLSFVVDKLFRGLLAAQRDISDGQGEEKPIIGLLDGKGEFTLTYEDNEGDKMLVGDVPWQMFVSSVKRLRVIKSSEISSALTFGCSKQEKMMH
ARF9 519-638 (Arabidopsis thaliana, UniProt Q9XED8); weak activation fusion; baseline: out of 2 tests: 2
ARF11 500-622 (Arabidopsis thaliana, UniProt Q9ZPY6); baseline: out of 4 tests: 0
IAA31 (Arabidopsis thaliana, UniProt Q8H174); baseline: out of 2 tests: 0
IAA29 (Arabidopsis thaliana, UniProt Q93WC4); baseline: out of 4 tests: 0
IAA28 (Arabidopsis thaliana, UniProt Q9XFM0); baseline: out of 4 tests: 2
ARF4 660-788 (Arabidopsis thaliana, UniProt Q9ZTX9); baseline: out of 2 tests: 0

Sample 2
SMILES: CC[n+]1c(/C=C/N(C)c2ccccc2)n(-c2ccccc2)c2ccc(-c3nc4ccccc4s3)cc21
Observed: enzyme activity
Mode: inhibitor
Concentration: 0.5 µM
Baseline: control
Measurement: remaining activity
MAPKAPK3 (Homo sapiens, UniProt Q16644): 100%
DYRK3 (Homo sapiens, UniProt O43781): 98.7%
MAP4K4 (Homo sapiens, UniProt O95819): 110%

Sample 3
Target: CCNF, cyclin fold, Cln2 fusion (human)
Technique: yeast growth competition, sequencing
Matrix: yeast
Setting: strong parent motif
Baseline: not given
Direction: higher = stronger binding
Measurement: normalised enrichment score
Parent: HASPIN docking peptide (human); ASLRSVLFGLMNS; partner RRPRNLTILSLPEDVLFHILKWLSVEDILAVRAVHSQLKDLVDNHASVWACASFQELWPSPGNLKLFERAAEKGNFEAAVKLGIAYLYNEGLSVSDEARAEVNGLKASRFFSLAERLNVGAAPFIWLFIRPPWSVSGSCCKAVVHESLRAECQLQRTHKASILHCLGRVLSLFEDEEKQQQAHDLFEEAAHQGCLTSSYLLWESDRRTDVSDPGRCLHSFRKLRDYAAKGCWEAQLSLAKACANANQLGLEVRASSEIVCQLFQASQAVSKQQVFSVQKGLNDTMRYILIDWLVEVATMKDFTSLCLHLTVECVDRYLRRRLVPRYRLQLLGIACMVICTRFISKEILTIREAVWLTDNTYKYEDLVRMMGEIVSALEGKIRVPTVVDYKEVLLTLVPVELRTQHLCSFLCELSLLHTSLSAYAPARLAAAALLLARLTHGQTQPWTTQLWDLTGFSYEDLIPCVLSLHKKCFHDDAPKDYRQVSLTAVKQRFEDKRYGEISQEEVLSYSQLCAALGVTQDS
AALRSVLFGLMNS [S2A]: 0.901
ASLRSALFGLMNS [V6A]: 1.49
ASLASVLFGLMNS [R4A]: 0.715
ASLRSVLFALMNS [G9A]: 2.04
ASLRSVLAGLMNS [F8A]: 0.767
ASLRSVLFGLMNA [S13A]: 1.16

Sample 4
Target: Phosphate system positive regulatory protein PHO4, full length, GST-tagged (PHO4, Saccharomyces cerevisiae, UniProt P07270, residues 1-312)
Technique: competition protein-binding microarray
Molecule type: double-stranded DNA, one strand shown
Matrix: in vitro
Concentration: 2 µM
Setting: whole 60-bp probe, lowest competitor level
Together with: Cbf1 competitor, 0.05 µM
Direction: higher = stronger binding
Measurement: fluorescence intensity
Constant ends, left off below: … GTCTTGATTCGCTTGACGCTGCTG
Target sequence (chain): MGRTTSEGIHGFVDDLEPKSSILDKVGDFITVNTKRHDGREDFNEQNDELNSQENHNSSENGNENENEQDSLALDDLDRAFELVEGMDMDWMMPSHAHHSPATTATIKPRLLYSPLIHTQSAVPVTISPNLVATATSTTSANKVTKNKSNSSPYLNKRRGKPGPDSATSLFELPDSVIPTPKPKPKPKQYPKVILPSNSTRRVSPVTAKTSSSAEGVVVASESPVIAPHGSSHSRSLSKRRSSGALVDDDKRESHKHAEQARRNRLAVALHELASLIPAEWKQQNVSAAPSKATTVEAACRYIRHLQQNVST
TGGTGGTAATTTTGGAACGTGCAAAACCTCTGGTAT: 11800 a.u.
TTGCGAAAGCCGCAGAACGTGATGGATAAACATCAA: 10700 a.u.
GAGCTCAAGGCGAGTCACGATGCAGAACTGGAACTT: 6540 a.u.
GTCTTGTCTCATTGTTTCGTGGGTGTCCCCACTTCA: 6560 a.u.
TGCGCAACAACTTTTCACGTGCTCTTATGTCTAGAA: 18000 a.u.
AGCGAGTTCACCCGTCACGTGCAAAGAGAACTCACA: 15900 a.u.
AAGTCGTTAGGGCCAATCGTGGGACGTATGCTATTG: 6340 a.u.
CATACCCCTCAGTTCCACGGGGTAAAAAAAAAACTT: 7490 a.u.

Sample 5
Compound: O=C(NCc1ncc(C(F)(F)F)cc1Cl)c1ccc2c(c1)C1(CCS(=O)(=O)CC1)[C@H](C1CC1)N2S(=O)(=O)c1ccc(F)cc1
Concentration: 1 µM
Measurement: remaining binding
TIE1 (Homo sapiens, UniProt P35590); cell-free assay, competition with immobilised ligand: 100%
Ribosomal protein S6 kinase alpha-2, C-terminal kinase domain (RPS6KA2, Homo sapiens, UniProt Q15349); cell-free assay, competition with immobilised ligand: 99%
PKMYT1 (Homo sapiens, UniProt Q99640); cell-free assay, competition with immobilised ligand: 100%
FLT3 (Homo sapiens, UniProt P36888, N841I); cell-free assay, competition with immobilised ligand: 58%
CHEK1 (Homo sapiens, UniProt O14757); cell-free assay, competition with immobilised ligand: 100%
LIM domain kinase 2 (LIMK2, Homo sapiens, UniProt P53671); cell-free assay, competition with immobilised ligand: 100%
TSSK1B (Homo sapiens, UniProt Q9BXA7); cell-free assay, competition with immobilised ligand: 100%
MAP4K3 (Homo sapiens, UniProt Q8IVH8); cell-free assay, competition with immobilised ligand: 100%
GSK3B (Homo sapiens, UniProt P49841); cell-free assay, competition with immobilised ligand: 87%
CDC42BPB (Homo sapiens, UniProt Q9Y5S2); cell-free assay, competition with immobilised ligand: 100%
Tyrosine-protein kinase ABL1, phosphorylated (ABL1, Homo sapiens, UniProt P00519, E255K); binding, competition with immobilised ligand: 80%
NEK4 (Homo sapiens, UniProt P51957); cell-free assay, competition with immobilised ligand: 99%
TRPM6 (Homo sapiens, UniProt Q9BX84); cell-free assay, competition with immobilised ligand: 81%
ACVR2A (Homo sapiens, UniProt P27037); cell-free assay, competition with immobilised ligand: 86%
MARK4 (Homo sapiens, UniProt Q96L34); cell-free assay, competition with immobilised ligand: 100%
CDK13 (Homo sapiens, UniProt Q14004); cell-free assay, competition with immobilised ligand: 88%
CDC42BPG (Homo sapiens, UniProt Q6DT37); competition binding: 100%
BUB1 (Homo sapiens, UniProt O43683); cell-free assay, competition with immobilised ligand: 68%

Further values, each from its own experiment
KRT14 (Homo sapiens, UniProt P02533)  interaction screen (KRT8 (Homo sapiens, UniProt P05787); cross-linking MS; hits only): cross-linked

Some of these lines once more (sample 5):
PKMYT1 (Homo sapiens, UniProt Q99640); cell-free assay, competition with immobilised ligand: 100%
FLT3 (Homo sapiens, UniProt P36888, N841I); cell-free assay, competition with immobilised ligand: 58%
CHEK1 (Homo sapiens, UniProt O14757); cell-free assay, competition with immobilised ligand: 100%
LIM domain kinase 2 (LIMK2, Homo sapiens, UniProt P53671); cell-free assay, competition with immobilised ligand: 100%
TSSK1B (Homo sapiens, UniProt Q9BXA7); cell-free assay, competition with immobilised ligand: 100%
